Published values of several laboratories.
Compare with care: the assays were run in different laboratories. Values joined by “and” are separate records of one study, mostly repeats; a detail may differ. Numbers after ± are the reported error.

Compound | cell line | assay | conditions | scale | quantity | result
Nc1ncnc2c1ncn2[C@@H]1O[C@@H]2COP(=O)(O)O[C@H]3[C@@H](O)[C@H](n4cnc5c(=O)[nH]cnc54)O[C@@H]3COP(=O)(O)O[C@H]2[C@H]1O | HFF-1 | RNA sequencing, refers to: Reactome Interferon Signaling | upregulated pathways | reference: mock | fold enrichment | 12.5
Cc1cc(C(C)(C)c2ccc(O)c(C)c2)ccc1O | HepG2 spheroids | Hoechst flow cytometry | 1 µM, 24 h | – | G1 phase cells | 75 ± 3.24%
COc1cc(CCC[P+](c2ccccc2)(c2ccccc2)c2ccccc2)c(OC)c2c1OCO2.[I-] | HOP-92 | SRB | – | – | TGI | -5.16 log M
Cc1n[nH]c(C)c1CSCc1ccccc1 | U-937 | cytotoxicity | – | reference: IC50 HEK293 over IC50 U-937 | selectivity index | 1.4
N.N.[Cl][Pt][Cl] | MDA-MB-231 | cell viability | 48 h, light irradiation 2.5 min | – | IC50 | 33.68 ± 0.23 µM
CCN(CC)c1ccc(C=NNC(=O)CSc2nc3ccccc3c(=O)n2Cc2ccc(S(N)(=O)=O)cc2)c(O)c1 | SK-MEL-5 | NCI five-dose screen | – | – | CC50 | 77.5 µM
Cn1cncc1C1=CN(c2ncnc3[nH]cnc23)CCS1 | M14 | – | melanoma cell line | – | CC50 | > 200 µM
COc1c(CCC[P+](c2ccccc2)(c2ccccc2)c2ccccc2)cc2c(c1OC)OCO2.[I-] | HOP-92 | SRB | – | – | GI50 | -6.3 log M
CN1CCN(C2(CNC3CCN(c4cccc(-c5cc6cc(F)ccc6[nH]5)c4)CC3)CCC2)CC1 | HOP-92 | – | – | – | GI50 | 1.48 µM
O=[N+]([O-])c1ccc(Cl)cc1 | human cells | reporter gene, agonist, luciferase reporter | – | reference: positive control | Emax | 31.7%
Nc1ncc(-c2nc(N3CCOCC3)nc(N3CCOCC3)n2)c(C(F)F)n1 | DoTc2 4520 | cell growth | 72 h | – | GI50 | 0.083 µM
C[C@]12CC[C@H](O)C[C@H]1CC[C@@H]1[C@@H]2CC[C@]2(C)[C@@H](c3ccc(=O)oc3)CC[C@]12O | MCF7 | RT-qPCR, refers to: PGR | 50 nM, 48 h, unit not given, added: estradiol | reference: untreated | mRNA level | 0.933 and 0.819 and 0.983
CCOP1(=O)CC=Cc2cc(N)ccc2O1 (stereo not drawn) | A-375 | cell proliferation, MTT | 100 µM, 72 h, normoxia | – | maximal inhibition | 10 to 15%
CC(C)N1CCC(NC2CCN(c3cccc(-c4cc5cc(F)ccc5[nH]4)c3)CC2)CC1 | SK-MEL-5 | – | – | – | CC50 | 5.46 µM
Cc1cnc2ccc3c(nc(N)n3C)c2n1 | BALB/c 3T3 | colony formation | 50 µM | – | plating efficiency | 45%
C/C=C(/C)C(=O)O[C@H]1C(C)=C2[C@H]([C@@H]1OC(=O)CCCCCCC)[C@@](C)(OC(C)=O)C[C@H](OC(=O)CCC)[C@@]1(O)[C@H]2OC(=O)[C@@]1(C)O | HEK-293T | RNA-seq GSEA, refers to: Hallmark DNA repair | 500 nM, 6 h | direction not given | normalized enrichment score | 1.1
COc1ccc([C@H]2c3[nH]c4ccc(Cl)cc4c3CCN2C(=O)Oc2ccc(Cl)cc2)cc1 | human dermal fibroblasts with PBMC | cytokine secretion, refers to: sVEGF | 0.1 µM, 48 h | – | inhibition | 60%
CN1C(=O)[C@@]23C[C@]4([C@]56C[C@@]78SS[C@@](CO)(C(=O)N7[C@H]5Nc5ccccc56)N(C)C8=O)c5ccccc5N[C@@H]4N2C(=O)[C@]1(CO)SS3 | OCI-Ly1 | – | 0.5 µM, 120 h | – | viability | 0.631%

For quick reference, copied from above:
Compound | cell line | assay | conditions | scale | quantity | result
Cc1n[nH]c(C)c1CSCc1ccccc1 | U-937 | cytotoxicity | – | reference: IC50 HEK293 over IC50 U-937 | selectivity index | 1.4
